Literature values, collected from citations in different studies.
Lines come from different studies, so protocols differ. ± gives the spread as reported. In brackets after ≈: the same amount, converted by molar mass.
UniProt P06536, sequence (whole entry, looked up): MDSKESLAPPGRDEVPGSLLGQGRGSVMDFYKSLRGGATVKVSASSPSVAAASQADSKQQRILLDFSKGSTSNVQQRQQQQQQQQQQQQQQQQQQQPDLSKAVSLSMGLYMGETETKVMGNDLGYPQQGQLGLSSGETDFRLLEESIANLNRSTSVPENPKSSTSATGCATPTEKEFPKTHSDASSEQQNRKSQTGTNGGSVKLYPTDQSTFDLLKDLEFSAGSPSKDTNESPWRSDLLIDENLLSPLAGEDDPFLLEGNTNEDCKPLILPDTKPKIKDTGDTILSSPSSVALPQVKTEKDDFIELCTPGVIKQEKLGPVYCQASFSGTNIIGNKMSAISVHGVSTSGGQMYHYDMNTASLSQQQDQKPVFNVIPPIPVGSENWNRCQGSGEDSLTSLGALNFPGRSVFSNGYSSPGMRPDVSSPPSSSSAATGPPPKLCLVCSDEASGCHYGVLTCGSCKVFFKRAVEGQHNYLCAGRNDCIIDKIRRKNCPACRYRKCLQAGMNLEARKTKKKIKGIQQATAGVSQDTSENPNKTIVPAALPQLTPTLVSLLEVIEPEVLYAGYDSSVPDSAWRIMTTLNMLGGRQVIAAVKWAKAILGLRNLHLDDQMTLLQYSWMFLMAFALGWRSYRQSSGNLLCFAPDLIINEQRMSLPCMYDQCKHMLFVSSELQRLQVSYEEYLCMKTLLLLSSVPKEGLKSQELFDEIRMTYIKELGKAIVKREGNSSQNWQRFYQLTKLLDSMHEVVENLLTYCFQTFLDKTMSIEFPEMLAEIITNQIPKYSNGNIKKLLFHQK
UniProt P51617, sequence (whole entry, looked up): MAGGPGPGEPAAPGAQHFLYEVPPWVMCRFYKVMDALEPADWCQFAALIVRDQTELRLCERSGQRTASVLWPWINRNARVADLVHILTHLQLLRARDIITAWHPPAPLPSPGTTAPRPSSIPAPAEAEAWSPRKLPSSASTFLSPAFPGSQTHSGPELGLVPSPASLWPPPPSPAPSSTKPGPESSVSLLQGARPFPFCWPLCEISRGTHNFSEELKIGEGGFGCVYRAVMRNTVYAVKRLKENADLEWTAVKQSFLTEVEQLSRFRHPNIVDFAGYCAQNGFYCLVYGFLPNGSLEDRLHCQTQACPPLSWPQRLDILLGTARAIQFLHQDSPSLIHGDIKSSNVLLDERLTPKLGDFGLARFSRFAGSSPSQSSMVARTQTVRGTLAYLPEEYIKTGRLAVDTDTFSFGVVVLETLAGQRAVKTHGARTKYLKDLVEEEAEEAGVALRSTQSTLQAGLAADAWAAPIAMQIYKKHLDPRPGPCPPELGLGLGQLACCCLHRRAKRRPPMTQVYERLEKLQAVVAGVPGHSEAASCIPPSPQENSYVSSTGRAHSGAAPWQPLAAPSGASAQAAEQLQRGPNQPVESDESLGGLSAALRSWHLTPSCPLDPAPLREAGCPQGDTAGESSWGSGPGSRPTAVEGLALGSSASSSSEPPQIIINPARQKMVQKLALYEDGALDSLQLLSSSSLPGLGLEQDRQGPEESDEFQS
UniProt Q8TEK3, sequence (whole entry, looked up): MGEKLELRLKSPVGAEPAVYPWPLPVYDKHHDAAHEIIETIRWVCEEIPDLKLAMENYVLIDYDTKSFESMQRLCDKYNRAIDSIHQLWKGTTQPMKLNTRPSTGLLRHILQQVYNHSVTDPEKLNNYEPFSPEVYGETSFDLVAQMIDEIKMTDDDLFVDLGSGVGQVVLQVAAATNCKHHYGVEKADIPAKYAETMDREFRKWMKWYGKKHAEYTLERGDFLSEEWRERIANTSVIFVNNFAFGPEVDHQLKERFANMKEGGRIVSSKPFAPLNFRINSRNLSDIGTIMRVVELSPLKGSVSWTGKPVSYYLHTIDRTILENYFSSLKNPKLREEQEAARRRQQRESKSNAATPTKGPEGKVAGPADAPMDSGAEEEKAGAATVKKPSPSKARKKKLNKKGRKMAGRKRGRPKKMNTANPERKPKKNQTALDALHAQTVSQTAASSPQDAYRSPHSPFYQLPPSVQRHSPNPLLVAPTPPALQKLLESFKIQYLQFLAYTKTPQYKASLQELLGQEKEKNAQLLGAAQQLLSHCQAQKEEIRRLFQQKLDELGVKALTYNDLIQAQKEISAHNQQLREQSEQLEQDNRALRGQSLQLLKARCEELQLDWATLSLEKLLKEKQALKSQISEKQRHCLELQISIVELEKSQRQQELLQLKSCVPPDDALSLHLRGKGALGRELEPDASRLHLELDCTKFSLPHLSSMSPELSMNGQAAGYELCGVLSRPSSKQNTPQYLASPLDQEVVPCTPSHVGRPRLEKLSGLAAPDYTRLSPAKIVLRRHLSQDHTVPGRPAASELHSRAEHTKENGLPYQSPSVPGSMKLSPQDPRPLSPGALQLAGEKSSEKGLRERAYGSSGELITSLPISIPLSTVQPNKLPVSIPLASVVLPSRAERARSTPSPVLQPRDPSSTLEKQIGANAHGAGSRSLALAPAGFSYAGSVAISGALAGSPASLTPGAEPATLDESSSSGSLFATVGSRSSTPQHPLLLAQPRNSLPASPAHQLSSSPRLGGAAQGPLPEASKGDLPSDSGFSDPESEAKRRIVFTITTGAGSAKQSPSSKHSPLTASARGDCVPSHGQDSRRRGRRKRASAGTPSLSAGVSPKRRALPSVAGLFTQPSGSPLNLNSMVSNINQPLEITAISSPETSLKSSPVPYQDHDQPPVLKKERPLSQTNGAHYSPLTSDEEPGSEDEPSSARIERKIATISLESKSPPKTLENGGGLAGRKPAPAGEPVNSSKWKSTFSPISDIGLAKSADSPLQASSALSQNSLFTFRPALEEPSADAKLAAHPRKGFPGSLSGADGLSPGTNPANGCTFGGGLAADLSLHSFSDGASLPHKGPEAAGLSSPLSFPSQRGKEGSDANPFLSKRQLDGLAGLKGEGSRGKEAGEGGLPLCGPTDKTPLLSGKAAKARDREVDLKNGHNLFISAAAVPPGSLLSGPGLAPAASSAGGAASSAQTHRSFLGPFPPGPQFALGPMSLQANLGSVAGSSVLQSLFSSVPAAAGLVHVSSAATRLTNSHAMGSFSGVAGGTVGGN

Structure (SMILES)	target or system	test	system	setting	scale	endpoint	result
CCN(c1cc(-c2ccc(CN3CCOCC3)cc2)cc(C(=O)NCc2c(C)cc(C)[nH]c2=O)c1C)C1CCOCC1	DOT1L (Homo sapiens, UniProt Q8TEK3)	enzyme activity, inhibitor		1 µM		inhibition	2 ± 8%
COc1ccccc1Oc1cccc(CN2CCC(NC(=O)C3CC(=O)Nc4ccccc43)CC2)c1 (stereo not shown)	human CCR8 K193A mutant (TM5)	IP accumulation, agonist				EC50	0.032 µM
CCN(CC)CCOc1ccc2cc1CN(C)C/C=C/CCOc1cccc(c1)-c1ccnc(n1)N2	CDK2 (Homo sapiens, UniProt P24941)					IC50	0.3 µM
Cc1cc(NC(=O)c2cccc(NC(=O)/C=C/CN(C)C)c2)ccc1Nc1nccc(-c2cccnc2)n1	IRAK1 (Homo sapiens, UniProt P51617)	enzyme activity, inhibitor		1 µM	baseline: vehicle	remaining activity	13%
CCCCCCCc1[nH]c2ccccc2c(=O)c1C	Plasmodium falciparum	whole cell extended time	3D7	72 h		IC50	0.51 µM
Oc1ccc(-c2nc(-c3ccncc3)c(-c3ccc(F)cc3)[nH]2)cc1	CSNK1E	kinase activity, inhibitor		0.5 µM		inhibition	67%
CNCc1cc(-c2ccccc2F)n(S(=O)(=O)c2cccnc2)c1			human, plasma	10 mg multiple dose, observed clinical data		Cmax	11.6 ng/mL
Nc1cc(C(F)(F)F)c(-c2nc(N3CCOCC3)nc(N3CCOCC3)n2)cn1	44 tumour cell lines					GI50	1.03 µM
COCCc1ccc(OCC(O)CNC(C)C)cc1 (stereo not shown)			human fasted	100 mg multiple doses, day 7, mean		AUC(0-24 h)	650 ng·h/mL
CNC(C)C1CCC(N)C(OC2C(N)CC(N)C(OC3OCC(C)(O)C(NC)C3O)C2O)O1 (stereo not shown)	Pseudomonas aeruginosa		clinical isolate RKI-No_47/09			MIC	8 µg/mL (≈ 16.8 µM)
CCNS(=O)(=O)c1ccc(OC)cc1C1(O)CCN(Cc2cccc(Oc3ccccc3OC)c2)CC1	human CCR8 L168D mutant (TM4)	IP accumulation, agonist				EC50	0.031 µM
CCCC(C)(C)C(=O)O	human neural embryonic cells	cell viability		unbound medium concentration		EC10	1160 µM
Cc1c(C#N)cccc1[C@@H](C)Nc1nnc(C)c2cnc(N3CCOCC3)cc12	SNU-C4	3D cell viability		7 d		IC50	0.0384 ± 0.0107 µM
Cc1nc2ccc(-c3ccc(OC(F)(F)F)cc3)cc2c(O)c1C#N	Plasmodium falciparum	whole cell extended time	3D7	72 h		IC50	0.02 µM
COC(=O)C1=C(C)NC(C)=C(C(=O)OC)C1c1c(Cl)nc2sc(C)cn12		negative inotropic effect	guinea pig, isolated left atrium			EC50	0.056 µM
CC(C)n1cnc2c(Nc3cccc(Cl)c3)nc(NCCO)nc21	CSNK1D	kinase activity, inhibitor		concentration not given		inhibition	63%
COc1ccc(-c2cc(-c3ccc(S(C)(=O)=O)cc3)cnc2N)cn1	Plasmodium falciparum	whole cell extended time	3D7	72 h		IC50	0.19 µM
CC1(C)S[C@@H]2[C@H](NC(=O)[C@H](N)c3ccccc3)C(=O)N2[C@H]1C(=O)O	Escherichia coli		clinical isolate RKI-No_602/16			MIC	≤ 4 µg/mL
Cc1[nH]c(C)c(-c2ccc(-c3ccc(OC(F)(F)F)cc3)cc2)c(=O)c1Br	Plasmodium falciparum	whole cell extended time	3D7	72 h		IC50	0.04 µM
COC(=O)C1=C(C)NC(C)=C(C(=O)OC)C1c1c(C)nc2sc(Cl)cn12			guinea pig left atrium	50 µM, paced at 1 Hz	baseline: control	decrease in developed tension	63 ± 4.7%

Structure (SMILES)	target or system	test	system	setting	scale	endpoint	result
Cc1cc(NC2CCCC2)nc(Nc2ccccc2)n1	Plasmodium falciparum	whole cell extended time	3D7	72 h		IC50	0.99 µM
CCN(c1cc(-c2ccc(CN3CCOCC3)cc2)cc(C(=O)NCc2c(C)cc(C)[nH]c2=O)c1C)C1CCOCC1			human patients, EZH2 wild-type, relapsed or refractory follicular lymphoma	dose not given		objective response rate	34%
CCC(=O)O[C@]1(C(=O)SCF)[C@H](C)C[C@H]2[C@@H]3C[C@H](F)C4=CC(=O)C=C[C@]4(C)[C@@]3(F)[C@@H](O)C[C@@]21C	Nr3c1 (Rattus norvegicus, UniProt P06536)		rat, spleen	intravenous, 90 nmol/kg, 1.117 (unit not given)		receptor occupancy	60.1%
COCCN(C)c1ccc(C(=O)Nc2ccccc2)cc1NS(=O)(=O)Cc1ccccc1	Plasmodium falciparum	whole cell extended time	3D7	72 h		IC50	0.57 µM
Nc1cccc2c1C(=O)N(C1CCC(=O)NC1=O)C2=O (stereo not shown)		TNF release	human whole blood	with: LPS		IC50	~0.013 µM
CNC(=O)[C@@]12C[C@@H]1[C@@H](n1cnc3c(NCc4cccc(Cl)c4)nc(C#Cc4ccc(F)c(F)c4)nc31)[C@H](O)[C@@H]2O	β3	radioligand binding				Ki	1 to 10 µM
CC1=CC(=O)CC(C)(C)C1=O	12-oxophytodienoate reductase OPR1 (isoform 1)	ene-reductase biotransformation, substrate				conversion	95 to 98%
O=C(Nc1nc2ccccc2[nH]1)c1ccccc1	SMN2 isoform d			PubChem AID 1458		activity	4 µM
CCCCCCCc1c(C)[nH]c2ccccc2c1=O	Plasmodium falciparum	whole cell extended time	3D7	72 h		IC50	0.21 µM
COc1ccccc1Oc1cccc(CN2CCC(O)(c3ccccc3C(=O)O)CC2)c1	human CCR8 Y113A mutant (TM3)	IP accumulation, agonist				EC50	> 10 µM
CCNC(=O)[C@H]1O[C@@H](n2cnc3c(N)nc(NCCc4ccc(CCC(=O)O)cc4)nc32)[C@H](O)[C@@H]1O		radioligand dissociation		second phase, with allosteric modulator, with: [3H]ZM241385 (ZM241385)		dissociation rate constant	0.004 ± 0.004 min⁻¹
COc1ccccc1Oc1cccc(CN2CCC(NC(=O)C(CCN3CCCC3)c3ccccc3)CC2)c1 (stereo not shown)	human CCR8 S262A mutant (TM6)	IP accumulation, agonist				EC50	0.04 µM
COC(=O)C1=C(C)NC(C)=C(C(=O)OC)C1c1c(-c2cccc(OC)c2)nc2sccn12		decrease in atrial rate	guinea pig right atrium			EC50	1.36 µM
C[C@H]1COCCN1c1nc(-c2cnc(N)cc2C(F)F)nc(N2CCOCC2)n1	BT-20					GI50	0.183 µM
CC(=O)Nc1ccc(O)cc1	CYP1A2	substrate				Vmax	0.432 pmol/min/pmol
COC(=O)C1=C(C)NC(C)=C(C(=O)OC)C1c1c(-c2cccc(C(F)(F)F)c2)nc2sccn12		decrease in atrial rate	guinea pig right atrium			EC50	3.76 µM
CC[C@H]1OC(=O)[C@H](C)[C@@H](O[C@H]2C[C@@](C)(OC)[C@@H](O)[C@H](C)O2)[C@H](C)[C@@H](O[C@@H]2O[C@H](C)C[C@H](N(C)C)[C@H]2O)[C@](C)(OC)C[C@@H](C)C(=O)[C@H](C)[C@@H](O)[C@]1(C)O	P-glycoprotein (ABCB1)	inhibitor	liver	Simcyp library default value		Ki	4 µM
Cc1[nH]c(C)c(-c2ccc(CCc3ccc(F)cc3F)cc2)c(=O)c1Br	Plasmodium falciparum	whole cell extended time	3D7	72 h		IC50	0.01 µM
COC(=O)C1=C(C)NC(C)=C(C(=O)OC)C1c1c(-c2ccccc2OC(F)(F)F)nc2sccn12		negative inotropic effect	guinea pig, isolated left atrium			EC50	0.075 µM
COc1ccccc1Oc1cccc(CN2CCC3(CC2)C(=O)NCN3CCc2ccccc2)c1	human CCR8 Y113A mutant (TM3)	IP accumulation, agonist				EC50	> 10 µM

Repeated from above:
Structure (SMILES)	target or system	test	system	setting	scale	endpoint	result
O=C(Nc1nc2ccccc2[nH]1)c1ccccc1	SMN2 isoform d			PubChem AID 1458		activity	4 µM
CCCCCCCc1c(C)[nH]c2ccccc2c1=O	Plasmodium falciparum	whole cell extended time	3D7	72 h		IC50	0.21 µM
COc1ccccc1Oc1cccc(CN2CCC(O)(c3ccccc3C(=O)O)CC2)c1	human CCR8 Y113A mutant (TM3)	IP accumulation, agonist				EC50	> 10 µM
CCNC(=O)[C@H]1O[C@@H](n2cnc3c(N)nc(NCCc4ccc(CCC(=O)O)cc4)nc32)[C@H](O)[C@@H]1O		radioligand dissociation		second phase, with allosteric modulator, with: [3H]ZM241385 (ZM241385)		dissociation rate constant	0.004 ± 0.004 min⁻¹
